# Assay results collected from several papers.
# ± marks the error that the study gave.
Substance,organism,assay,test system,conditions,MIC
Cc1ccc(S(=O)(=O)N2C(=O)CSC2c2cccc(Cl)c2)cc1 (stereo not shown),Lacticaseibacillus casei,broth microdilution,NCIM 2651,,16 µg/mL
N#Cc1ccc(COc2ccc(C#Cc3ccc(C(F)(F)[C@](O)(Cn4cnnn4)c4ccc(F)cc4F)nc3)cc2)cc1,Acanthamoeba castellanii,"parasite growth, resazurin",,96 h,0.045 µg/mL
CCOC(=O)c1c(N)csc1-c1cn(-c2ccccc2)nc1-c1ccc(C)cc1,Candida albicans,broth microdilution,clinical urinary isolate,compound gamma-irradiated 20 kGy,0.125 ± 0.4 µg/mL
OC(Cn1cncn1)(Cn1cncn1)c1ccc(F)cc1F,Acanthamoeba castellanii,"parasite growth, resazurin",,96 h,> 64 µg/mL
CC1NC(=O)C(C(=O)NC(C(=O)NC2C(=O)N3C2SC(C)(C)C3C(=O)O)c2ccccc2)=C1O (stereo not shown),Escherichia coli,broth microdilution,"BW25113, Mueller-Hinton broth",,200 µg/mL
Cc1ccc(S(=O)(=O)N2C(=O)CSC2c2ccccc2Br)cc1 (stereo not shown),Lacticaseibacillus casei,broth microdilution,NCIM 2651,,64 µg/mL
LSTFFRLFN,Streptococcus mutans,broth microdilution,"peptide, GS-5","24 h, 37 °C, planktonic, anaerobic",> 256 µg/mL
Cc1ccc(S(=O)(=O)N2C(=O)CSC2c2ccc(O)cc2)cc1 (stereo not shown),Lacticaseibacillus casei,broth microdilution,NCIM 2651,,16 µg/mL
CC1(C)S[C@@H]2[C@H](NC(=O)[C@H](N)c3ccccc3)C(=O)N2[C@H]1C(=O)O,Lacticaseibacillus casei,broth microdilution,"ATCC 393, MRS medium","24 h, 37 °C",2.5 ± 0.5 µg/mL
CC(C)(C)OCC1NC(=O)C(C(=O)NC(C(=O)NC2C(=O)N3C2SC(C)(C)C3C(=O)O)c2ccccc2)=C1O (stereo not shown),Escherichia coli,broth microdilution,"BW25113, Mueller-Hinton broth","added: 2,2'-bipyridyl 30 µg/mL",25 µg/mL
O[C@@](Cn1cnnn1)(c1ccc(F)cc1F)C(F)(F)c1ccc(-c2ccc(OCC(F)(F)F)cc2)cn1,Acanthamoeba castellanii,"parasite growth, resazurin",,96 h,0.03 µg/mL
CC1(C)SC2C(NC(=O)C(NC(=O)C3=C(O)CNC3=O)c3ccccc3)C(=O)N2C1C(=O)O (stereo not shown),Escherichia coli,broth microdilution,"BW25113, Mueller-Hinton broth","added: 2,2'-bipyridyl 30 µg/mL",50 µg/mL
Cc1ccc(S(=O)(=O)N2C(=O)CSC2c2ccc(C(C)C)cc2)cc1 (stereo not shown),Lacticaseibacillus casei,broth microdilution,NCIM 2651,,> 256 µg/mL
CC1(C)SC2C(NC(=O)C(NC(=O)C3=C(O)CN(c4ccccc4)C3=O)c3ccccc3)C(=O)N2C1C(=O)O (stereo not shown),Escherichia coli,broth microdilution,"BW25113, Mueller-Hinton broth","18 h, without clavulanic acid",12.5 µg/mL
pneumocandin I,Candida albicans,"broth microdilution, resazurin",ATCC 90028,"24 h, 35 °C",0.1 µg/mL
CC1(C)SC2C(NC(=O)C(NC(=O)C3=C(O)C(Cc4ccc(O)cc4)NC3=O)c3ccccc3)C(=O)N2C1C(=O)O (stereo not shown),Escherichia coli,broth microdilution,"BW25113, Mueller-Hinton broth",,200 µg/mL
Cc1ccc(S(=O)(=O)N2C(=O)CSC2c2ccccc2C)cc1 (stereo not shown),Lacticaseibacillus casei,broth microdilution,NCIM 2651,,64 µg/mL
pneumocandin B0,Candida albicans,"broth microdilution, resazurin",ATCC 10231,"24 h, 35 °C",0.8 µg/mL
CC(C)C1NC(=O)C(C(=O)NC(C(=O)NC2C(=O)N3C2SC(C)(C)C3C(=O)O)c2ccccc2)=C1O (stereo not shown),Escherichia coli,broth microdilution,"BW25113, Mueller-Hinton broth",,100 µg/mL
